Measured values gathered from unrelated publications.
± gives the spread as reported.
CDK9 with cyclin T1: Cyclin-dependent kinase 9, with cyclin T1 (CDK9, Homo sapiens, UniProt P50750)
Chain of UniProt P50750 (whole entry, looked up): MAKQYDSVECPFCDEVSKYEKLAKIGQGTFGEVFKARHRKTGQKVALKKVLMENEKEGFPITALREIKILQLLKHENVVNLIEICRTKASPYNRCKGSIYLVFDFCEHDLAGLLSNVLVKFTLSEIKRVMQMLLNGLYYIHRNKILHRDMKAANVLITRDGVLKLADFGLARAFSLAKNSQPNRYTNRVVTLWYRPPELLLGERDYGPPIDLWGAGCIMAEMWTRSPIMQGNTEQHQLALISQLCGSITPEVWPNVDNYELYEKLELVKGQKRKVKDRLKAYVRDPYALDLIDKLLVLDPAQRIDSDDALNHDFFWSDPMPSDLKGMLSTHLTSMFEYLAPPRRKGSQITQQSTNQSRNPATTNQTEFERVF
CDK9: Cyclin-dependent kinase 9 (CDK9, Homo sapiens, UniProt P50750)

For `COCc1cc(C(=O)Nc2cc([C@H]3CC[C@@H](OC(=O)NC(C)C)C3)[nH]n2)n(C)n1`, the Ki was 0.231 µM (CDK9 with cyclin T1; kinase activity, inhibitor, fluorescence).
With `CC(C)(C)c1cnc(CSc2cnc(NC(=O)C3CCN(C(=O)CCCCCCCN4Cc5cc6c(cc5C4)C(=O)N(C4CCC(=O)NC4=O)C6=O)CC3)s2)o1` (centres unmarked) the DC50 was under 0.01 µM (CDK9; degrader, Western blot; U-87 MG glioblastoma; 6 h).
The IC50 of `CN1CCN(c2ccc(Nc3ncc4cc(C#N)c(=O)n(C5CCCC5)c4n3)cc2)CC1` is reported as 0.191 µM (CDK9 with cyclin T1).
The Ki of `C[C@@]1(O)CCC[C@H]1n1c(=O)c(C(F)F)cc2cnc(NC3CCN(S(C)(=O)=O)CC3)nc21` is reported as 0.027 µM (CDK9 with cyclin T1; kinase activity, inhibitor, fluorescence).
With `CN1CCC(c2c(O)cc(O)c3c(=O)cc(-c4ccccc4)oc23)C(O)C1` (centres unmarked) the IC50 was 0.009 µM (CDK9 with cyclin T1; kinase activity, inhibitor; together with: Cyclin T1 complex, GST-CTD substrate).
For `CC(C)(C)c1cnc(CSc2cnc(NC(=O)C3CCN(C(=O)CCOCCCN4Cc5cc6c(cc5C4)C(=O)N(C4CCC(=O)NC4=O)C6=O)CC3)s2)o1` (centres unmarked), the DC50 was 0.0075 ± 0.0029 µM (CDK9; degrader, Western blot; TC-71).
With `CC[C@H](CO)Nc1nc(NCc2ccc(-c3ccccn3)cc2)c2ncn(C(C)C)c2n1` the Kd was 0.294 µM (Cyclin-dependent kinase 9, with cyclin T2 (CDK9, Homo sapiens, UniProt P50750); affinity chromatography competition; SH-SY5Y cell extract).
The IC50 of `CC[C@@H]1[C@H](F)C(=O)N[C@@H]1COc1nccc2cc(C(N)=O)c(OC)cc12` is reported as over 5 µM (CDK9; ATP-site probe binding, ActivX profiling; THP-1 cell lysate; Lys2 site).

A few entries again:
With `CC[C@H](CO)Nc1nc(NCc2ccc(-c3ccccn3)cc2)c2ncn(C(C)C)c2n1` the Kd was 0.294 µM (Cyclin-dependent kinase 9, with cyclin T2 (CDK9, Homo sapiens, UniProt P50750); affinity chromatography competition; SH-SY5Y cell extract).
